Results collected from several papers.
A part holds a random share of what one study measured.
Sequence of UniProt P37173 (whole entry, looked up): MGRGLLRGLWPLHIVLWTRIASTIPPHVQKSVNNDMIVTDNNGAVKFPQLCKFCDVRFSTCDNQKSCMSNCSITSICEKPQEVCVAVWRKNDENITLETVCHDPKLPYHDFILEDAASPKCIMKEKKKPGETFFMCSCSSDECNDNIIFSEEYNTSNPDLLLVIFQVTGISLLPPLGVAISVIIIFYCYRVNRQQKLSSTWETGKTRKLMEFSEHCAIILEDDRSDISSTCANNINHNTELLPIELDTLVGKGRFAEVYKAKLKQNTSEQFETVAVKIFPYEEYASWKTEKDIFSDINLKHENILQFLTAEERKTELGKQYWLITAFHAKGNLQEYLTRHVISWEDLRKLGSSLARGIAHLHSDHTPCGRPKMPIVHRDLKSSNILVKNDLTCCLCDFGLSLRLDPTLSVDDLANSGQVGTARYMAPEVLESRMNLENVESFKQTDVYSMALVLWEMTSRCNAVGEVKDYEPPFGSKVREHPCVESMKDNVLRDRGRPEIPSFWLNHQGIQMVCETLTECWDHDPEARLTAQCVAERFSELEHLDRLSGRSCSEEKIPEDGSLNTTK
Sequence of UniProt P53355 (whole entry, looked up): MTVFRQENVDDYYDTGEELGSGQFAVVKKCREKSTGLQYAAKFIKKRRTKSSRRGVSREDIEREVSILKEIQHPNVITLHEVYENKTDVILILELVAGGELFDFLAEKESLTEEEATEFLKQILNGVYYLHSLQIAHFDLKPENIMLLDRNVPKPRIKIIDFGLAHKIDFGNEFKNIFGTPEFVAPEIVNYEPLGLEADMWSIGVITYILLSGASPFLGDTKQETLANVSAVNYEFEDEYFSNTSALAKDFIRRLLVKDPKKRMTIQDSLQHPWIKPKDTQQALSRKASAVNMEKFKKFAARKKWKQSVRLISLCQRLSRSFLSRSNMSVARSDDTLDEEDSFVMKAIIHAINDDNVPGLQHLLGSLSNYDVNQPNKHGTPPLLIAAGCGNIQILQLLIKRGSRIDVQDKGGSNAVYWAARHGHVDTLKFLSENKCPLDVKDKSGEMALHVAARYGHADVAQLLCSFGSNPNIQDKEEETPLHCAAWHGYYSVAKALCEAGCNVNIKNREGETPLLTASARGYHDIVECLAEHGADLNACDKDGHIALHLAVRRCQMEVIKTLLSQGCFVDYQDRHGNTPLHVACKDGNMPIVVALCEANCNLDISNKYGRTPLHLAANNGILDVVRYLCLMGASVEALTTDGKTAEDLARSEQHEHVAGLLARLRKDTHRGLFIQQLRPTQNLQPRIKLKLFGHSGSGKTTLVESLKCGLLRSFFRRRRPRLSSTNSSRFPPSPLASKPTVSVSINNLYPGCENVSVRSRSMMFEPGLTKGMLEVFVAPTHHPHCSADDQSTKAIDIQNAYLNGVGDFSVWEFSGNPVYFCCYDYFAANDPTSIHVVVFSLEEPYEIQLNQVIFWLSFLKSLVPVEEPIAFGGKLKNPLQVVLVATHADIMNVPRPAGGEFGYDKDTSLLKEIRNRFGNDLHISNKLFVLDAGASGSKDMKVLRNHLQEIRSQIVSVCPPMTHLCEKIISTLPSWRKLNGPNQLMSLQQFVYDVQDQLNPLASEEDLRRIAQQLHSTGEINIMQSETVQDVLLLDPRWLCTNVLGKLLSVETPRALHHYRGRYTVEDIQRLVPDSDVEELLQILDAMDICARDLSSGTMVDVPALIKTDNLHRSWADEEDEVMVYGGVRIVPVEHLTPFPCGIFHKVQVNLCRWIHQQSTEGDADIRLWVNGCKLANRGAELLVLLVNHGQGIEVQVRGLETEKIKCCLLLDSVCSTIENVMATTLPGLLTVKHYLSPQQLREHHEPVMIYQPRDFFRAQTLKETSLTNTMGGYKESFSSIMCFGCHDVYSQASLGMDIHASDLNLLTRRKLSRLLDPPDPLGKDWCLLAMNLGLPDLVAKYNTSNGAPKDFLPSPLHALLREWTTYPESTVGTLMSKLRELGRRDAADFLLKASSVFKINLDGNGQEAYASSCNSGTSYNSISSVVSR
Sequence of UniProt P54764 (whole entry, looked up): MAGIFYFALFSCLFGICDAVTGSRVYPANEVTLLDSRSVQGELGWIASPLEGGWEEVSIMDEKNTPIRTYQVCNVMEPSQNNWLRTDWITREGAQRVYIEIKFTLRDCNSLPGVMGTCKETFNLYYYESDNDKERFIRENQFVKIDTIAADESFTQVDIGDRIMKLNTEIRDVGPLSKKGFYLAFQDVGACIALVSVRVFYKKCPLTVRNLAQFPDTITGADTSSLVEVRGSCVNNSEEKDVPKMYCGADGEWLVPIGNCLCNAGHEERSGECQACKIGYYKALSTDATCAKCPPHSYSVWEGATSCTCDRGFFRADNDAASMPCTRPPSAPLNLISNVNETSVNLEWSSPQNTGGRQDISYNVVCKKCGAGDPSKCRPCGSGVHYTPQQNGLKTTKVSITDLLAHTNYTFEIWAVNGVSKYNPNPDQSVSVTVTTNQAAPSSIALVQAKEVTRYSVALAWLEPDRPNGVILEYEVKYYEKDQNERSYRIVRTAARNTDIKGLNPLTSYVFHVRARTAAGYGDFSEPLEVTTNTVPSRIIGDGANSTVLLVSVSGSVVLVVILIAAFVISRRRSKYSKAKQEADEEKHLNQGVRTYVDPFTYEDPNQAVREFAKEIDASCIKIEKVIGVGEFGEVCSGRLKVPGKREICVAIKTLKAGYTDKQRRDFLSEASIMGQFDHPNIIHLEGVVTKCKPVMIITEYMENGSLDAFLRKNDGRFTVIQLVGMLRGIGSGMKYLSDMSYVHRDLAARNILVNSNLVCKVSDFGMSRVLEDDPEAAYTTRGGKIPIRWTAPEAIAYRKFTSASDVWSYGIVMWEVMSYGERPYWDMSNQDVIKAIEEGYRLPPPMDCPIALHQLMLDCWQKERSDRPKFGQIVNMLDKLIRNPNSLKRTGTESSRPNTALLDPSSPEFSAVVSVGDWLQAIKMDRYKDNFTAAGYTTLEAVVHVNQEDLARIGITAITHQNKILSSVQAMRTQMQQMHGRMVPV
Sequence of UniProt P09769 (whole entry, looked up): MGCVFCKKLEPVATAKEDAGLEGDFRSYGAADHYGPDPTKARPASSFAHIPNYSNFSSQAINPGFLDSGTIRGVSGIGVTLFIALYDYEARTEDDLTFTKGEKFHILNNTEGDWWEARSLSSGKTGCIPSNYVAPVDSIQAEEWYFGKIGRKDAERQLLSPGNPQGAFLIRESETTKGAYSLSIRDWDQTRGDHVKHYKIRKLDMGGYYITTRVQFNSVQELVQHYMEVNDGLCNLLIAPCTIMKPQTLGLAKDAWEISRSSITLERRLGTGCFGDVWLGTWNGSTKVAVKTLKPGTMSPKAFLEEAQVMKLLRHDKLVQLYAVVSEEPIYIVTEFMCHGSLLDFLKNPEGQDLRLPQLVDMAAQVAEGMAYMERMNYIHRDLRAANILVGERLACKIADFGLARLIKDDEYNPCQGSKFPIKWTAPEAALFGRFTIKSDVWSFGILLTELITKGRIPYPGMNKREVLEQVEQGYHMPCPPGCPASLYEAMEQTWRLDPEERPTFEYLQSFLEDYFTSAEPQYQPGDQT
Sequence of UniProt Q9BRS2 (whole entry, looked up): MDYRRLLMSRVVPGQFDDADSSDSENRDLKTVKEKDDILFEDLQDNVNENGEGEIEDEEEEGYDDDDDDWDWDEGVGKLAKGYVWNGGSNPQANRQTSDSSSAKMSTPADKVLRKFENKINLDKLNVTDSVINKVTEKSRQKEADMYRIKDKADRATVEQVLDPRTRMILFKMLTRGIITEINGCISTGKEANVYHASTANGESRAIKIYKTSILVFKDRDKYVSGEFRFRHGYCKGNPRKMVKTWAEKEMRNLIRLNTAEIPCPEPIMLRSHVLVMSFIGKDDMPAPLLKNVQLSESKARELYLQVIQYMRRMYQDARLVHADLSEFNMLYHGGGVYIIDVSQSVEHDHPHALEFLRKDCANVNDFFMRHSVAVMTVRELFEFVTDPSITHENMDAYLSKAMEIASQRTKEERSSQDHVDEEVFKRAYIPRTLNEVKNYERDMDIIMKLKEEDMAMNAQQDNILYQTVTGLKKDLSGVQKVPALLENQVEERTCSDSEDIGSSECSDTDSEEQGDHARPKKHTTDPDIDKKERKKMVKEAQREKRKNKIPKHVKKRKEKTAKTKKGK
Sequence of UniProt P51955 (whole entry, looked up): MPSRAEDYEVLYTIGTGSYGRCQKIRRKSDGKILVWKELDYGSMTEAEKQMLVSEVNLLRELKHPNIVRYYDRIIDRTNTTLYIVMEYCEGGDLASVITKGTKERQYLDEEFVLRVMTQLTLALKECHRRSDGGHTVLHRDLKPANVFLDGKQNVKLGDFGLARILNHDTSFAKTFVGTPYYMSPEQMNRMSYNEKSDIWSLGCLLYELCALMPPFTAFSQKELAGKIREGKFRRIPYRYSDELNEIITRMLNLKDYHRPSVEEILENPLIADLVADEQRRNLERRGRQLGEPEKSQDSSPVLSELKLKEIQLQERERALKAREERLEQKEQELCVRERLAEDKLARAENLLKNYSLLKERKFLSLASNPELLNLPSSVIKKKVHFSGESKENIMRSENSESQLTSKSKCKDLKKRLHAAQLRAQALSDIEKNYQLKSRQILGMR
Sequence of UniProt Q9Y6M4 (whole entry, looked up): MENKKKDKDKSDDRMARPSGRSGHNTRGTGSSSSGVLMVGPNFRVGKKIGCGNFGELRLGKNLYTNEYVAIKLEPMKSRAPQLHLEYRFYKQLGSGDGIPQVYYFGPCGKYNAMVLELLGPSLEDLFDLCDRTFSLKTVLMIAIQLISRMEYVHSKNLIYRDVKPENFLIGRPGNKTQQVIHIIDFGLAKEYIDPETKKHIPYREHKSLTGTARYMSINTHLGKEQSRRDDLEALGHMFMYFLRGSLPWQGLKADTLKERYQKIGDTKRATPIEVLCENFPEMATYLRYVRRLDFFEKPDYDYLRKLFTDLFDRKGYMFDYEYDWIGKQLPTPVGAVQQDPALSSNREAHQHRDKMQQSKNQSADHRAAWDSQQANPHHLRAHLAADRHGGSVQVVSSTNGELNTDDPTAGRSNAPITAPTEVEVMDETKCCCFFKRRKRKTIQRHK

Study 1 — technique: phase 2a trial; species: idiopathic pulmonary fibrosis patients
Compound: CC(C)n1cnc(-c2ccc(F)cc2)c1-c1ncc(C(=O)Nc2ccc(N3CCN(C)CC3)cc2)[nH]1
Measurement: patients with lower respiratory infection
all dose arms pooled, grade 4: 0%
all dose arms pooled, grade 3: 0%
60 mg once daily, grade 1: 0%
60 mg once daily, grade 2: 0%
all dose arms pooled, grade 1: 0%
30 mg once daily, grade 3: 0%
60 mg once daily, grade 5: 0%
30 mg once daily, grade 4: 0%

Study 2 — cell line: HuT78; concentration: 2 µM; time: 48 h; relative to: untreated; measurement: viability
O=c1[nH]nc(Sc2ncc([N+](=O)[O-])s2)n1-c1ccc2c(c1)OCCO2: 94%
Cn1cc(/C=C2\C(=O)Nc3cccnc32)c2ccccc21: 117%
CC[C@H](Nc1ncnc2[nH]cnc12)c1nc2cccc(F)c2c(=O)n1-c1ccccc1: 104%
CN1CCC(CNc2ccc3ncc(-c4cccc(OC(F)(F)F)c4)n3n2)CC1: 99.7%
N#C/C(=C(/N)Sc1ccc(N)cc1)c1ccccc1C(F)(F)F: 130%
C[C@]1(O)C[C@@H](c2nc(-c3ccc4ccc(-c5ccccc5)nc4c3)c3c(N)nccn32)C1: 110%
COc1c(C)c(C(=O)c2ccc(N)c(C(=O)O)c2)n2ccccc12: 117%

Study 3 — read-out: cell-free assay; technique: competition with immobilised ligand; concentration: 1 µM; measurement: remaining binding
Structure (SMILES): NS(=O)(=O)c1cc(NC(=O)C2(c3ccccc3Cl)CC2)ccc1Oc1cccc(Cl)c1
Serine/threonine-protein kinase RIO1 (RIOK1, Homo sapiens, UniProt Q9BRS2): 84%
Leucine-rich repeat serine/threonine-protein kinase 2 (LRRK2, Homo sapiens, UniProt Q5S007): 89%
Serine/threonine-protein kinase BRSK2 (BRSK2, Homo sapiens, UniProt Q8IWQ3): 87%
Tyrosine-protein kinase Fgr (FGR, Homo sapiens, UniProt P09769): 54%
STE20-like serine/threonine-protein kinase (SLK, Homo sapiens, UniProt Q9H2G2): 79%
Phosphatidylinositol 5-phosphate 4-kinase type-2 gamma (PIP4K2C, Homo sapiens, UniProt Q8TBX8): 62%
Platelet-derived growth factor receptor alpha (PDGFRA, Homo sapiens, UniProt P16234): 81%
Serine/threonine-protein kinase PLK4 (PLK4, Homo sapiens, UniProt O00444): 87%
Serine/threonine-protein kinase 17A (STK17A, Homo sapiens, UniProt Q9UEE5): 85%
Casein kinase I isoform gamma-3 (CSNK1G3, Homo sapiens, UniProt Q9Y6M4): 100%
Ephrin type-A receptor 4 (EPHA4, Homo sapiens, UniProt P54764): 100%
Mitogen-activated protein kinase 1 (MAPK1, Homo sapiens, UniProt P28482): 75%
Dual specificity testis-specific protein kinase 1 (TESK1, Homo sapiens, UniProt Q15569): 100%
Serine/threonine-protein kinase MARK1 (MARK1, Homo sapiens, UniProt Q9P0L2): 83%
Mast/stem cell growth factor receptor Kit, autoinhibited (KIT, Homo sapiens, UniProt P10721): 79%
Tyrosine-protein kinase ZAP-70 (ZAP70, Homo sapiens, UniProt P43403): 100%
Mitogen-activated protein kinase kinase kinase 20 (MAP3K20, Homo sapiens, UniProt Q9NYL2): 99%
Phosphatidylinositol 3-kinase C2 domain-containing subunit gamma (PIK3C2G, Homo sapiens, UniProt O75747): 100%
Mitogen-activated protein kinase kinase kinase 12 (MAP3K12, Homo sapiens, UniProt Q12852): 100%
Myosin light chain kinase (MYLK3, Homo sapiens, UniProt Q32MK0): 89%

Study 4 — read-out: enzyme activity; mode: inhibitor; concentration: 0.5 µM; relative to: control; measurement: remaining activity
Structure (SMILES): FC(F)(F)c1ccc(/C=C/c2nc(COc3ccc(CCCCn4ccnn4)cc3)co2)cc1
STE20/SPS1-related proline-alanine-rich protein kinase (STK39, Homo sapiens, UniProt Q9UEW8): 88.3%
cGMP-dependent protein kinase 1, isoform beta (PRKG1, Homo sapiens, UniProt Q13976): 98.1%
Serine/threonine-protein kinase Nek2 (NEK2, Homo sapiens, UniProt P51955): 96.2%
Cyclin-dependent kinase 4, with cyclin D1 (CDK4, Homo sapiens, UniProt P11802): 96.8%
TGF-beta receptor type-2 (TGFBR2, Homo sapiens, UniProt P37173): 103%
Death-associated protein kinase 2 (DAPK2, Homo sapiens, UniProt Q9UIK4): 107%
Serine/threonine-protein kinase 10 (STK10, Homo sapiens, UniProt O94804): 92.6%
Death-associated protein kinase 1 (DAPK1, Homo sapiens, UniProt P53355): 91.3%
Inhibitor of nuclear factor kappa-B kinase subunit beta (IKBKB, Homo sapiens, UniProt O14920): 98.6%
Cyclin-dependent kinase 5, with p25 (CDK5, Homo sapiens, UniProt Q00535): 106%
Serine/threonine-protein kinase OSR1 (OXSR1, Homo sapiens, UniProt O95747): 99.7%
